Assay results from different studies.

NC(=O)N1c2ccccc2C=Cc2ccccc21  patients with Nasopharyngitis (male patients; oral, dose not given, on-treatment adverse events): 0%
CNC(=O)c1ccc(-c2cnc3ncc(Cc4ccc5ncccc5c4)n3n2)cc1F  patients with adverse event (item: Asthenia; gastric cancer patients; oral, 600 mg twice daily, expansion cohort, grade 3-4): 0%
Cc1cc(-c2nnc(N)nc2-c2ccc(F)cc2)cc(Cl)n1  patients with treatment-related AE (item: Vomiting; other solid tumours, IO-naive; oral, 100 mg once daily, all grades): 21.1%
C=CC(=O)Nc1cc(Nc2nccc(-c3cn(C)c4ccccc34)n2)c(OC)cc1N(C)CCN(C)C  patients with treatment-related AEs (item: Anemia grade ≥3; EGFR-mutant MET-altered NSCLC; oral, dose not given, study): 0%
COc1ccc([C@@H](O)c2cc(-c3ncnc4cc(N5CCOCC5)ccc34)c(F)cc2Cl)nn1  patients with diarrhea (locally advanced rectal cancer patients; 100 mg, drug-related adverse events, together with: capecitabine and radiotherapy): 67%
C[C@@H](Nc1cc(F)cc(F)c1)c1cc(C(=O)N(C)C)cc2c(=O)cc(N3CCOCC3)oc12  patients discontinuing for AE (item: Pneumonia; advanced solid tumour patients; oral, dose not given, dose finding): 1.6%
Cc1cc(NC2CCN(C(=O)OC3CCN(C(=O)/C=C/CN(C)C)C3)CC2)n2ncc(C(C)C)c2n1 (centres unmarked)  patients with adverse event (Phase I dose escalation CTCAE v4.0, item: Hypotension; patients with advanced solid tumours; dose not given, TIW dosing any grade): 0%
COc1cc(Nc2ncc3c(n2)-c2ccc(Cl)cc2C(c2c(F)cccc2OC)=NC3)ccc1C(=O)O  patients with febrile neutropenia (cancer patients; oral, dose not given, all grades any attribution, together with: pembrolizumab): 8%
FC(F)(F)c1ccc(CNc2ccc(Cc3c[nH]c4ncc(Cl)cc34)cn2)cn1  patients with treatment-related adverse event (item: gastroesophageal reflux disease; patients with TGCT; oral, 1000 mg/day, grade 3 or higher): 0%
CCOc1c([C@H](C)n2nc(C)c3c(N)ncnc32)cc(Cl)c(F)c1[C@@H]1CNC(=O)C1  patients with high heart rate (item: heart rate > 100 bpm; previously treated B-cell malignancy; oral, dose not given, all doses): 5.8%
O=C(Nc1nc2cccc(-c3ccc(CN4CCS(=O)(=O)CC4)cc3)n2n1)C1CC1  patients with infections (rheumatoid arthritis patients; oral, 100 mg twice daily, 4 weeks, regardless of relatedness): 0%
